Measurements from different studies.
Parts stem from different laboratories: compare values within a part only.

Block 1 — cell line: mouse MPNST tumor cells; technique: high-content nuclear imaging; item: cell number; concentration: 10 µM; time: 12 h; notes: mean of 2 replicates; baseline: plate mean; reading: higher = more cells
The nuclei count of `O=C(c1ccc(C(=O)N2CCC(N3CCCC3)CC2)c(Nc2ccccc2)c1)N1CCC(N2CCCC2)CC1` is reported as 1.05 z-score.
`O=C(Nc1ccccc1)c1ccc(NC(=O)c2ccc(Cl)cc2Cl)cc1` has a nuclei count of 0.26 z-score.
With `COc1ccc(-c2cc3c(C)nc(N)nc3n([C@H]3CC[C@H](OCCO)CC3)c2=O)cn1` the nuclei count was -3.49 z-score.
For `COc1ccc(C(Cl)=C(c2ccc(OC)cc2)c2ccc(OC)cc2)cc1`, the nuclei count was 3.02 z-score.
With `CC(C)OC(=O)CCC/C=C\C[C@@H]1[C@@H](CC[C@@H](O)CCc2ccccc2)[C@H](O)C[C@@H]1O` the nuclei count was -0.812 z-score.

Block 2 — observed: enzyme activity; mode: inhibitor; concentration: 0.5 µM; baseline: control
Target: Calcium/calmodulin-dependent protein kinase type 1D (CAMK1D, Homo sapiens, UniProt Q8IU85)
Sequence of UniProt Q8IU85 (whole entry, looked up): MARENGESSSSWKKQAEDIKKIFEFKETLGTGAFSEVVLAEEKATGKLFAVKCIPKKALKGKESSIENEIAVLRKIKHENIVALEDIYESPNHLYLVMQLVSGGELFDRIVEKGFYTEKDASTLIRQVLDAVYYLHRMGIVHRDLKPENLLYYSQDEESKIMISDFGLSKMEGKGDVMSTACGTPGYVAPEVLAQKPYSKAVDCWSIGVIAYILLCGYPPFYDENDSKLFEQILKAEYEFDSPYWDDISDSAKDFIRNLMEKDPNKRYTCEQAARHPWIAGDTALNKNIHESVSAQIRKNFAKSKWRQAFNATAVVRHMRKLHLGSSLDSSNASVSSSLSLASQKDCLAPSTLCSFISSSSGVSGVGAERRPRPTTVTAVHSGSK
With `Nc1[nH]nc2nc3ccccc3nc12` the remaining activity was 98.3%.
`NCCNc1ncc(C(N)=O)c(Nc2cccc(C(F)(F)F)c2)n1` has a remaining activity of 61.1%.
The remaining activity of `Cc1nc(-c2ccccc2)c(-c2ccncc2)o1` is reported as 93.9%.
For `CNC(=O)c1cc(Oc2ccc(NC(=O)Nc3ccc(Cl)c(C(F)(F)F)c3)cc2)ccn1`, the remaining activity was 103%.
For `OCC(O)CCON=C1C(c2c(O)[nH]c3ccccc23)=Nc2ccccc21` (stereo not shown), the remaining activity was 80.3%.
`O=S(=O)(c1cccc2cnccc12)N1CCCNCC1` gave a remaining activity of 91.5%.
For `N#CC(C#N)=C(N)/C(C#N)=C/c1ccc(O)cc1`, the remaining activity was 98.9%.
For `CCOC(=O)c1c(C)[nH]c(/C=C2\C(=O)Nc3ccccc32)c1C`, the remaining activity was 93.1%.
`Cn1sc(=O)n(Cc2ccccc2)c1=O` gave a remaining activity of 97.1%.
`C#Cc1cccc(Nc2ncnc3cc(OCCOC)c(OCCOC)cc23)c1` gave a remaining activity of 98.8%.
With `Cn1c2ccccc2c2c3c(c4c5ccccc5n(CCC#N)c4c21)CNC3=O` the remaining activity was 82.4%.
`Cc1ccc(NC(=O)c2ccc(CN3CCN(C)CC3)cc2)cc1Nc1nc(-c2cccnc2)cs1` gave a remaining activity of 110%.
For `COc1cc2ncnc(Nc3ccc(Oc4ccccc4)cc3)c2cc1OC`, the remaining activity was 99.7%.
`O=C(O)c1ccc2c3c1cccc3c(=O)n1c3ccccc3nc21` has a remaining activity of 100%.
`Nc1ncnc2n[nH]c(Nc3ccc(F)cc3)c12` gave a remaining activity of 130%.

Block 3 — species: human; sample: microsomes or S9; concentration: 2 µM; time: 0.5 h
For `Cc1nc(NCC(O)CO)nc(C)c1CC(C)C` (stereo not shown), the remaining compound was over 99.9%.
`O=C(C1=COCCO1)N(CCn1cccn1)c1nc2c(Cl)cccc2s1` gave a remaining compound of 25%.
`COC(=O)C(O)c1c(C)nc2[nH]c3c(c2c1Cl)CCCC3` (stereo not shown) has a remaining compound of 60.4%.
For `OCCCc1cn(-c2ccccc2)c2ccccc12`, the remaining compound was 13.7%.
`Fc1ccc(-n2ccc(CN3CCC(Nc4cccnn4)CC3)n2)c(F)c1` gave a remaining compound of 83.8%.
For `CCOc1cc2c(-c3ccccc3)c(C)oc2cc1C(=O)c1ccccc1`, the remaining compound was 24.2%.
`CN(C)S(=O)(=O)c1cc(C(=O)NC2CCCCC2)c(Cl)cc1Cl` has a remaining compound of 38.4%.
`COc1cc(=O)[nH]cc1C(=O)N1CCCC1c1cn(C)nc1C` (stereo not shown) gave a remaining compound of 97.4%.

Block 4 — observed: binding; technique: radioligand binding; concentration: 10 µM
Target: D(1A) dopamine receptor (DRD1, Homo sapiens, UniProt P21728)
Sequence of UniProt P21728 (whole entry, looked up): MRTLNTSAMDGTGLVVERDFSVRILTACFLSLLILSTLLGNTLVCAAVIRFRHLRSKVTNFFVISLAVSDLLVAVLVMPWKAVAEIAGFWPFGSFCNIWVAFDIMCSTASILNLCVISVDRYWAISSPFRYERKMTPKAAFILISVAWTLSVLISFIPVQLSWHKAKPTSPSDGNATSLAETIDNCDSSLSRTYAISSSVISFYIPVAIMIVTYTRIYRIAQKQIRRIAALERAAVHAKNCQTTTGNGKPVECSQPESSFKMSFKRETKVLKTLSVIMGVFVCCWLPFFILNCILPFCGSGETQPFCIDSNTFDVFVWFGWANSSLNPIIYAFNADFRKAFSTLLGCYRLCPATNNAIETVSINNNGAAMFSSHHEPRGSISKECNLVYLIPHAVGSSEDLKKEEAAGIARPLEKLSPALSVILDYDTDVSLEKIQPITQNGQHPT
For `Cc1c[nH]c2nccc(Oc3c(F)cc(Nc4cc(Cl)nc(N)n4)cc3F)c12`, the inhibition was 16.1%.
`O=C(Nc1ccc(-n2nc(-c3cccnc3)cc2C(F)(F)F)cn1)c1ccc(-c2ccccc2)c(F)c1` has an inhibition of 4.32%.
For `O=C(Nc1cccnn1)N1CC(CC=Cc2cncc(Oc3ccc(C(F)(F)F)cn3)n2)C1`, the inhibition was 1.14%.
`O=C(Nc1cnc(Oc2ccc(F)cc2)nc1)N1CCc2ncccc2[C@@H]1c1ccc(F)cc1` gave an inhibition of 23.7%.
`COc1cc(-c2cn(C3CCc4ccccc4N(CC(F)(F)F)C3=O)nn2)ccc1-n1ccc(C)n1` (stereo not shown) gave an inhibition of 3.62%.
For `O=C(NC[C@@H]1[C@H]2CN(C(=O)OCc3cc(C(F)(F)F)cc(C(F)(F)F)c3)C[C@@H]12)c1ccc2[nH]nnc2c1`, the inhibition was 8.68%.

Some of these lines once more (block 2):
For `OCC(O)CCON=C1C(c2c(O)[nH]c3ccccc23)=Nc2ccccc21` (stereo not shown), the remaining activity was 80.3%.
`O=S(=O)(c1cccc2cnccc12)N1CCCNCC1` gave a remaining activity of 91.5%.
For `N#CC(C#N)=C(N)/C(C#N)=C/c1ccc(O)cc1`, the remaining activity was 98.9%.
For `CCOC(=O)c1c(C)[nH]c(/C=C2\C(=O)Nc3ccccc32)c1C`, the remaining activity was 93.1%.
`Cn1sc(=O)n(Cc2ccccc2)c1=O` gave a remaining activity of 97.1%.
`C#Cc1cccc(Nc2ncnc3cc(OCCOC)c(OCCOC)cc23)c1` gave a remaining activity of 98.8%.
